Published values collected from several papers.
Each line is one published result; not all experiments were run side by side. ± gives the spread as reported.

COc1ccc(-n2cc(C(=O)OC3CC4(C)C(CC(O)C5C(C6(C)CCCC(C)(C)O6)CCC54C)C4(C)CCC(O)C(C)(C)C34)nn2)cc1 (stereo not drawn)  IC50 (Hep3B; HRE reporter gene, inhibitor; 24 h, hypoxia): > 30 µM
CC1(C)Cc2c(-c3ccccc3)c(-c3ccc(Cl)cc3)c(CC(=O)NCC(=O)O)n2C1  IC50 (THP-1-derived macrophages; PGI2 production; with: LPS): > 100 µM
NC(=S)NNC(=O)c1cc2ccccc2oc1=O  IC50 (EA.hy 926; cell growth or viability, SRB; 72 h): 20 µM
C[C@]12CC/C(=N\OCCN3CCOCC3)C=C1CCC1C2CC[C@]2(C)/C(=C/c3ccccn3)CCC12 (stereo partly drawn)  IC50 (CEM; cytotoxicity, alamarBlue; 72 h): 21.9 µM
COc1cc(CC(=O)N2CC(=O)N[C@@H](Cc3ccccc3)CN(C(=O)Cc3ccc4ccccc4c3)CC(=O)N[C@@H](CCCCN)CN(C(=O)Cc3ccc4c(c3)OCO4)CC(=O)N[C@@H](CCCCN)CN(CC(N)=O)C(=O)CCSCc3ccc(cc3)C(=O)N[C@@H](CC(C)C)C2)cc(OC)c1  IC50 (SK-BR-3; cell proliferation, CCK-8; 72 h, reduced serum, with: EGF 100 ng/mL): 17.9 µM
C=CC(OC(C)=O)c1ccc(OC)cc1 (stereo not drawn)  IC50 (HMEC; MTT; 24 h): > 50 µM
CCN(CC)CCO/N=C1/C=C2CCC3C(CC[C@]4(C)/C(=C/c5ccccn5)CCC34)[C@@]2(C)CC1 (stereo partly drawn)  IC50 (CEM; cytotoxicity, alamarBlue; 72 h): 23.8 µM
COc1cccc(-c2ccc(Nc3ccc(CN(C)C)cc3)c(OC)c2F)c1  IC50 (NCI-H358; cell growth or viability, ATP luminescence; 72 h): 12.6 µM
Cc1ccn2c(Nc3ccc(C(=O)NO)cc3)cnc2c1  IC50 (CAL-27; HDAC activity, inhibitor, whole-cell): 8.13 µM
CCNC(=O)Nc1ccc(S(=O)(=O)Oc2ccccc2CC)cc1  IC50 (M21; cell growth or viability, SRB; 48 h): 5.3 µM
O=C1/C(=C(\O)CCc2ccccc2)C(=O)[C@@]2(C(=O)OC3CCCCC3)CS[C@H](c3ccccc3)N12  IC50 (MDCK; cell growth or viability, resazurin): 15.6 µg/mL
COc1cc(CN2CCN(c3ccccc3Cl)CC2)c2cc3[n+](cc2c1O)CCc1cc2c(cc1-3)OCO2  IC50 (Ca-Ski; cell growth or viability, SRB; 48 h): 4.35 µg/mL
CCOC(=O)c1csc2nc(-c3cccc(NC(=O)c4cc5cc(NC(=O)C(C)Cl)ccc5n4Cc4ccc(C(F)(F)F)cc4)c3)cn12 (stereo not drawn)  IC50 (RAW264.7; TNF-α release, inhibitor, ELISA; 24 h, LPS-stimulated): 12.9 µM
CCc1n(CC(=O)O[C@@H]2C[C@H](C)CC[C@H]2C(C)C)c2ccccc2[n+]1C  IC50 (HTS; cell growth or viability, ATP luminescence; 96 h): 0.15 µM
CN(C)S(=O)(=O)c1ccc(Cl)c(NC(=O)CC[Se]Cc2ccc(C(C)(C)C)cc2)c1  IC50 (normal cells): > 100 µM
CC1(C)CCCC(C)(C2CCC3(C)C2C(O)CC2C4(C)CCC(OC(=O)C=Cc5ccc(Cl)cc5)C(C)(C)C4C(OC(=O)C=Cc4ccc(Cl)cc4)CC23C)O1 (stereo not drawn)  IC50 (Hep3B; HRE reporter gene, inhibitor; 24 h, hypoxia): > 30 µM
COc1cc(/C=C/C(=O)c2ccc(O)cc2O)ccc1O  IC50 (human cells; NF-κB reporter gene, inhibitor; with: TNF-alpha): 38 µM
CC(C)=CCc1c2c(c(O)c3c(=O)c(-c4ccc(O)cc4O)coc13)C=CC(C)(C)O2  IC50 (Huh-7; cell growth or viability, MTT; 24 h): 26.7 µM
C=CC(=O)N1CCCC(n2c(=O)c3ncccc3n(Cc3ccc(Oc4ccccc4)cc3)c2=O)C1 (stereo not drawn)  IC50 (VL51 idelalisib-resistant; cell proliferation, MTT; 72 h): 0.1 µM
Cc1ccc(-c2nc(SCc3cn(CC(=O)NC(=O)Nc4ccccn4)nn3)nc(Nc3cccc(C(F)(F)F)c3)c2C#N)cc1  IC50 (MGC-803; cell growth or viability, MTS; 5 days): 6.62 µM
COC(=O)[C@H](CSSC(C)(C)[C@H](NC(=O)[C@H](CCC(=O)NC[C@H](O)[C@@H](O)[C@H](O)[C@H](O)CO)NC(=O)[C@H](CCC(=O)O)NC(=O)[C@H](CCC(=O)NC[C@H](O)[C@@H](O)[C@H](O)[C@H](O)CO)NC(=O)[C@H](CCC(=O)O)NC(=O)[C@H](CCC(=O)NC[C@H](O)[C@@H](O)[C@H](O)[C@H](O)CO)NC(=O)CC[C@H](NC(=O)c1ccc(NCc2cnc3nc(N)[nH]c(=O)c3n2)cc1)C(=O)O)C(=O)O)NC(=O)CC[C@H](NC(=O)c1ccc(NCc2cnc3nc(N)nc(N)c3n2)cc1)C(=O)O  IC50 (THP-1 expressing FRβ; cell viability, XTT; 2 h pulse, 70 h chase): 0.0087 µM
C=CC(OC(C)=O)c1ccc(OC(C)=O)c(OC)c1 (stereo not drawn)  IC50 (HMEC; MTT; 24 h): > 50 µM
N[C@@H](CCC(=O)N[C@@H](CS[Se]Cc1ccc(-c2cc(C(F)(F)F)nn2-c2ccc(S(N)(=O)=O)cc2)cc1)C(=O)NCC(=O)O)C(=O)O  IC50 (UACC-903 melanoma cells; cell viability, MTS; 24 h, metastatic stage): 30.9 ± 2.8 µM
Cc1ccc2ncc(Nc3ccc(C(=O)NO)cc3)n2c1  IC50 (CAL-27; cell growth or viability, MTT): 4.21 µM
CC1(C)CCCC(C)(C2CCC3(C)C2C(O)CC2C4(C)CCC(OC(=O)c5cn(-c6ccc(Cl)cc6)nn5)C(C)(C)C4C(O)CC23C)O1 (stereo not drawn)  IC50 (Hep3B; HRE reporter gene, inhibitor; 24 h, hypoxia): > 30 µM
Clc1ccc(C=[N+]2N=C(Nc3ccccc3)[S][Pd-]2([Cl])[Cl])s1  IC50 (MDCK; cell proliferation): > 100 µM
O=[N+]([O-])c1ccc(C(c2c(-c3ccccc3)[nH]c3ccccc23)c2c(-c3ccccc3)[nH]c3ccccc23)cc1  IC50 (B16; cell growth or viability, MTT; 24 h): 23.3 µM
Fc1ccccc1/C=C/c1nc2ccccc2nc1N1CCOCC1  IC50 (HeLa 229; cell growth or viability, MTT; 72 h): 12.3 µM
C=C(C)[C@@H]1CC[C@]2(C(=O)O)CC[C@]3(C)[C@H](CC[C@@H]4[C@@]5(C)CC[C@H](O[C@@H]6O[C@@H](C)[C@H](O)[C@@H](OC)[C@H]6O)C(C)(C)[C@@H]5CC[C@]43C)[C@@H]12  IC50 (DLD-1; cell growth or viability, fluorescence; 48 h): 10 µM
COC(=O)CCC(=O)[O][Pt-2]1([OH])([Cl])([Cl])[NH2+]CC[N+]1(C)C  IC50 (P31; cell viability, EZ4U; 96 h): 34.3 ± 1.2 µM
CC1(C)CCCC(C)(C2CCC3(C)C2C(O)CC2C4(C)CCC(OC(=O)NC5CCCCC5)C(C)(C)C4C(O)CC23C)O1 (stereo not drawn)  IC50 (Hep3B; HRE reporter gene, inhibitor; 24 h, hypoxia): 4.09 ± 0.12 µM
O=[N+]([O-])c1ccc(C=[N+]2N=C(Nc3ccccc3)[S][Pd-]2([Cl])[Cl])s1  IC50 (MDCK; cell proliferation): 55.3 µM
CSCC[C@@H]1NC(=O)CN(S(C)(=O)=O)CCNC(=O)[C@H](CCCCN)NC(=O)[C@H](CC(C)C)NC(=O)[C@H](CCCCN)NC(=O)[C@H](CC(C)C)NC(=O)[C@H](CCCCN)NC(=O)CN(S(C)(=O)=O)CCNC(=O)[C@H](Cc2c[nH]c3ccccc23)NC(=O)[C@H](CO)NC(=O)[C@H](C)NC(=O)[C@H](C(C)C)NC1=O  IC50 (NCI-H929; viability, TO-PRO-3 staining, flow cytometry): 19 µM
FC(F)(F)c1n[nH]cc1-c1nc2ccc3[nH]ncc3c2c2c1CCC2  IC50 (MOLM-14; cell growth or viability, resazurin; 72 h): 0.0458 µM
CSCC[C@@H]1NC(=O)CN(S(C)(=O)=O)CCNC(=O)[C@H](CCCCN)NC(=O)[C@H](CC(C)C)NC(=O)[C@H](CCCCN)NC(=O)[C@H](CC(C)C)NC(=O)[C@H](CCCCN)NC(=O)CN(S(C)(=O)=O)CCNC(=O)[C@H](Cc2c[nH]c3ccccc23)NC(=O)[C@H](CO)NC(=O)[C@H](C(C)C)NC(=O)[C@H](C)NC1=O  IC50 (NCI-H929; viability, TO-PRO-3 staining, flow cytometry): 6.2 µM
COc1ccc(S(=O)(=O)Nc2ccc(CCCC(=O)O[C@H]3c4cc5c(cc4[C@@H](c4cc(OC)c(OC)c(OC)c4)[C@H]4C(=O)OC[C@@H]43)OCO5)cc2)cc1  IC50 (NCI-H446; cell growth or viability, CCK-8; 24 h): 17.1 µM

A few entries again:
COC(=O)[C@H](CSSC(C)(C)[C@H](NC(=O)[C@H](CCC(=O)NC[C@H](O)[C@@H](O)[C@H](O)[C@H](O)CO)NC(=O)[C@H](CCC(=O)O)NC(=O)[C@H](CCC(=O)NC[C@H](O)[C@@H](O)[C@H](O)[C@H](O)CO)NC(=O)[C@H](CCC(=O)O)NC(=O)[C@H](CCC(=O)NC[C@H](O)[C@@H](O)[C@H](O)[C@H](O)CO)NC(=O)CC[C@H](NC(=O)c1ccc(NCc2cnc3nc(N)[nH]c(=O)c3n2)cc1)C(=O)O)C(=O)O)NC(=O)CC[C@H](NC(=O)c1ccc(NCc2cnc3nc(N)nc(N)c3n2)cc1)C(=O)O  IC50 (THP-1 expressing FRβ; cell viability, XTT; 2 h pulse, 70 h chase): 0.0087 µM
CC1(C)CCCC(C)(C2CCC3(C)C2C(O)CC2C4(C)CCC(OC(=O)C=Cc5ccc(Cl)cc5)C(C)(C)C4C(OC(=O)C=Cc4ccc(Cl)cc4)CC23C)O1 (stereo not drawn)  IC50 (Hep3B; HRE reporter gene, inhibitor; 24 h, hypoxia): > 30 µM
Fc1ccccc1/C=C/c1nc2ccccc2nc1N1CCOCC1  IC50 (HeLa 229; cell growth or viability, MTT; 72 h): 12.3 µM
